Published values from different studies.
Lines come from different studies, so protocols differ. Values joined by “and” are separate records of one study, mostly repeats; a detail may differ.
UniProt P25021, sequence (whole entry, looked up): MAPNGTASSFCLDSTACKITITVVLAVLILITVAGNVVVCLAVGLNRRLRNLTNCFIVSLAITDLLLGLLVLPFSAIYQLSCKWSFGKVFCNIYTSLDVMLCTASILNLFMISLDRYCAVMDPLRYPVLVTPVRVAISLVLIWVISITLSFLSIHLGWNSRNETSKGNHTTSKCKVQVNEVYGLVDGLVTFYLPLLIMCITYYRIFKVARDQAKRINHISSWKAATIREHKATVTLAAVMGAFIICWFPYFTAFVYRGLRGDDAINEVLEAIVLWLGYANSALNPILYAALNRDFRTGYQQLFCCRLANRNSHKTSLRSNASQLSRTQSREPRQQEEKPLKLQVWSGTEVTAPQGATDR
UniProt O14965, sequence (whole entry, looked up): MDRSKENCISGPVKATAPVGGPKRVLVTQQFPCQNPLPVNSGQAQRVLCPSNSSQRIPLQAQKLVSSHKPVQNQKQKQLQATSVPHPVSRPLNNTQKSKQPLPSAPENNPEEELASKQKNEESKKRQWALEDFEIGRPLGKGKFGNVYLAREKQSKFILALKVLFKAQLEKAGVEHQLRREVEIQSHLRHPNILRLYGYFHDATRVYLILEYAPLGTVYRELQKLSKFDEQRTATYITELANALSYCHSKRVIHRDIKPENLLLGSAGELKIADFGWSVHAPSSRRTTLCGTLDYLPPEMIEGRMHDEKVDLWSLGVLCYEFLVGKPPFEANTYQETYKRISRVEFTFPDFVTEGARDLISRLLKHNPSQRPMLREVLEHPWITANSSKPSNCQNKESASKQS
UniProt Q7KZI7, sequence (whole entry, looked up): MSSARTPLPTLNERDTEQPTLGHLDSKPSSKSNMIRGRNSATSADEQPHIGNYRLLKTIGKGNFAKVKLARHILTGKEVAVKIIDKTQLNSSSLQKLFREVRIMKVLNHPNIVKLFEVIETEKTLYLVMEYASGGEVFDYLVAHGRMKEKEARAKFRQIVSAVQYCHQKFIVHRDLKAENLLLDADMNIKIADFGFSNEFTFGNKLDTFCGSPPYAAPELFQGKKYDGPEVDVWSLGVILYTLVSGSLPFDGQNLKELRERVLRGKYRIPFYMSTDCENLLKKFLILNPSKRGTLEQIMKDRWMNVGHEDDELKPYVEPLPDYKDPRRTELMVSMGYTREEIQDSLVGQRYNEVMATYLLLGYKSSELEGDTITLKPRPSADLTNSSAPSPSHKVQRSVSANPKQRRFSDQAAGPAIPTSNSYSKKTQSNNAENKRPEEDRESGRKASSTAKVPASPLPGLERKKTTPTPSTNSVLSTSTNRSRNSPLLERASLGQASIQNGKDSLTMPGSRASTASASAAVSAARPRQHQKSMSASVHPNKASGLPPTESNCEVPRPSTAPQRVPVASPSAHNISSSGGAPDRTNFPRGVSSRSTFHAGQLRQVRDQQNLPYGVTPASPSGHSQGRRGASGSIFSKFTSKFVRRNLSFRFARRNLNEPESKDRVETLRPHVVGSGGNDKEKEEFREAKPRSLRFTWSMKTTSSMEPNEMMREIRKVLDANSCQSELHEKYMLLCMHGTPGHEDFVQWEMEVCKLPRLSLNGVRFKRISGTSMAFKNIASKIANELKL
UniProt Q5XI64, sequence (whole entry, looked up): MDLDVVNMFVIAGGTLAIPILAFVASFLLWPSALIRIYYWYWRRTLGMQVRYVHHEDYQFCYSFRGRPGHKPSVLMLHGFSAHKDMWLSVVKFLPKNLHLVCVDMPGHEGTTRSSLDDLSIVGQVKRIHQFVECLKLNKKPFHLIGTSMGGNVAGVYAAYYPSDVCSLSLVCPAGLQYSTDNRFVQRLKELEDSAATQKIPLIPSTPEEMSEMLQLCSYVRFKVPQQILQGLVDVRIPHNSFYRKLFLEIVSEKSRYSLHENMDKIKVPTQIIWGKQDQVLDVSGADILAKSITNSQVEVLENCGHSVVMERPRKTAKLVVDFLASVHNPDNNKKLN
UniProt P08908, sequence (whole entry, looked up): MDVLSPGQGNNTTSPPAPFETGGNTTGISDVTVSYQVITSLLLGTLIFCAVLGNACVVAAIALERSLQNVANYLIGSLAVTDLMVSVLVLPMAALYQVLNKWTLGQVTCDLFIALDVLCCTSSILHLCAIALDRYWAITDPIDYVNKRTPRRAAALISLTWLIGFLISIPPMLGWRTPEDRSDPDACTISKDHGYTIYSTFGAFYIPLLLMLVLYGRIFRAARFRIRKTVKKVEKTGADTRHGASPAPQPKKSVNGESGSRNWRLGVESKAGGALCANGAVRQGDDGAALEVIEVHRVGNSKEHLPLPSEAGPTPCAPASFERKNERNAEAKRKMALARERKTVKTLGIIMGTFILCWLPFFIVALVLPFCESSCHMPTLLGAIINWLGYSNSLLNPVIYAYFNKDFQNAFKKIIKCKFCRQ
UniProt Q09429, sequence (whole entry, looked up): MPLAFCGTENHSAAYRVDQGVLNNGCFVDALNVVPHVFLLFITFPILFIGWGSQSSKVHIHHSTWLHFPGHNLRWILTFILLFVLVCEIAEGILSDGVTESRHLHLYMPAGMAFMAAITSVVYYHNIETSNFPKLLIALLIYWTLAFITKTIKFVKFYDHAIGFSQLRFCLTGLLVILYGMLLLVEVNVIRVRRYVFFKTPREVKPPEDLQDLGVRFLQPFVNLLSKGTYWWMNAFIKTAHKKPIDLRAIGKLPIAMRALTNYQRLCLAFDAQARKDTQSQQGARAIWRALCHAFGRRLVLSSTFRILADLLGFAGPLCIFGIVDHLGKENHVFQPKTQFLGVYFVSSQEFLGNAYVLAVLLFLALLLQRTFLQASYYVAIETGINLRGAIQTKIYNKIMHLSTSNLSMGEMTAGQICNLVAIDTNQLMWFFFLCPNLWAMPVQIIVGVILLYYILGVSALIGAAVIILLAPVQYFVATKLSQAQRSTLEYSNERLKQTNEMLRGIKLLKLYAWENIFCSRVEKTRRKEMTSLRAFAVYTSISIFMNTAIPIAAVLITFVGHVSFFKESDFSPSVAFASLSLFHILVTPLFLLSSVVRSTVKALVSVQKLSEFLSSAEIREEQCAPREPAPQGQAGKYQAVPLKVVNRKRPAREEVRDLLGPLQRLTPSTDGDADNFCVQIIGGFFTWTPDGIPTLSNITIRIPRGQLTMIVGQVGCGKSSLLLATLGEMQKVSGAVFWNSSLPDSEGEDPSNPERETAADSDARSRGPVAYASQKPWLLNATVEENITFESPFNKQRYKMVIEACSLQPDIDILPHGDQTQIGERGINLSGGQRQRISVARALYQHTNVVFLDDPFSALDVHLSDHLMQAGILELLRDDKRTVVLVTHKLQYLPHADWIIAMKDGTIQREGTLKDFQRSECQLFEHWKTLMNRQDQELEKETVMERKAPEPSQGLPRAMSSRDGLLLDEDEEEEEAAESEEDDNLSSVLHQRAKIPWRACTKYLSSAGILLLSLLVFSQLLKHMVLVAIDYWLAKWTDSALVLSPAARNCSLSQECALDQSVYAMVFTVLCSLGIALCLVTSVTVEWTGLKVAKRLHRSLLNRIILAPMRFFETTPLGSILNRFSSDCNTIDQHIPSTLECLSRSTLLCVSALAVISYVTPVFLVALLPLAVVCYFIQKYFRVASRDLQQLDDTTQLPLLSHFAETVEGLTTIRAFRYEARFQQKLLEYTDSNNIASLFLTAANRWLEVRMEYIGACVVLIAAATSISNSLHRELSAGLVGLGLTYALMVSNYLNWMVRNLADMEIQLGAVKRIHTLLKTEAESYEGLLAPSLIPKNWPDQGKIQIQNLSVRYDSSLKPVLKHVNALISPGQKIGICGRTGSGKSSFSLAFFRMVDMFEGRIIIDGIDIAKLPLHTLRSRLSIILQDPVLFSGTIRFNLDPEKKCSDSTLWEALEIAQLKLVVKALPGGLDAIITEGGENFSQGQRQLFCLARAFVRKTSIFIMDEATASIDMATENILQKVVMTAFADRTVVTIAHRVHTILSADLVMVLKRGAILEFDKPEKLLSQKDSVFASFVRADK
UniProt Q9C098, sequence (whole entry, looked up): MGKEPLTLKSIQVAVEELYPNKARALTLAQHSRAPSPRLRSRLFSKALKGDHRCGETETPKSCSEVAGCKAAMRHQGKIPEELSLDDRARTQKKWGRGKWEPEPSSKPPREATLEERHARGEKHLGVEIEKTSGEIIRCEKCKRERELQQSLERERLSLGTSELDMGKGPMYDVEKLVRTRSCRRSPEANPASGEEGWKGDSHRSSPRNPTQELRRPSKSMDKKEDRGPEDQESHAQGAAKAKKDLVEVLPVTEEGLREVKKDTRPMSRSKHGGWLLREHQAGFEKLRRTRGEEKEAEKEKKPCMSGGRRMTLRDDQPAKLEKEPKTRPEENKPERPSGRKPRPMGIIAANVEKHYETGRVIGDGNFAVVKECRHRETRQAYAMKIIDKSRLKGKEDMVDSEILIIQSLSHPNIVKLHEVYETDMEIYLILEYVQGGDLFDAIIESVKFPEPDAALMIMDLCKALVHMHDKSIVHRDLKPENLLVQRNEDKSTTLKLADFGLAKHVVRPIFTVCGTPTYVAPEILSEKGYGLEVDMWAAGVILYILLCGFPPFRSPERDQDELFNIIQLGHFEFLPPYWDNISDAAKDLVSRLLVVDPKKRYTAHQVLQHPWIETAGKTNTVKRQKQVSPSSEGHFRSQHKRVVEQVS

The inhibition of FC(F)(F)c1cccc(Nc2nc(NCCOc3ccccc3)nc3[nH]cnc23)c1 is reported as 0% (MARK2 (Homo sapiens, UniProt Q7KZI7); enzyme activity, inhibitor, Thermo Fisher kinase screening; 5 µM).
O=C(Nc1cccnn1)N1CCC(=Cc2cccc(Oc3ccc(C(F)(F)F)cn3)c2)CC1 gave an inhibition of 23% and 13% (somatostatin sst5 receptor; concentration not given).
COc1cc(Nc2ncc(F)c(Nc3ccc4c(n3)NC(=O)C(C)(C)O4)n2)cc(OC)c1OC has an inhibition of 96% (DCLK3 (Homo sapiens, UniProt Q9C098); binding, KINOMEscan; 10 µM, DCAMKL3 kinase).
CN(C(=O)n1cnc(-c2ccc[n+]([O-])c2)c1)C1CCCCC1 gave an inhibition of 27.9% (Monoacylglycerol lipase ABHD6 (Abhd6, Rattus norvegicus, UniProt Q5XI64); probe labelling, inhibitor, competitive ABPP; rat brain membrane fraction; 10 µM, added: azido-FP probe).
For COc1ccc(N2C(=O)N(c3c(C)cccc3Cl)Cc3cnc(Nc4ccc(C5CCN(C)CC5)cc4OC)nc32)nc1, the inhibition was 5.53% (Aurora kinase A (AURKA, Homo sapiens, UniProt O14965); kinase activity, inhibitor; 0.5 µM, kinase AURORA-A).
Cn1cccc1-c1cccnc1 has an inhibition of -3.72% (HRH2 (Homo sapiens, UniProt P25021); binding; 50 µM).
For CN(CCN1CCC(OC(=O)Nc2ccccc2-c2ccccc2)CC1)C(=O)c1ccc(CN2CCC(C(N)=O)CC2)cc1, the inhibition was 10% (Abcc8 (Rattus norvegicus, UniProt Q09429); radioligand binding; 1 µM, added: [3H]glibenclamide 0.1 nM).
O=C(Nc1cnccc1Cl)N1CCN(Cc2ccc3c(c2)OC(F)(F)O3)CC1 has an inhibition of 5% (GABAB1B receptor, human; binding; 50 µM, added: [3H]CGP-54626).
The inhibition of COc1cc2c(NC3CCN(C)CC3)cc(-c3ccc(C)o3)nc2cc1OCCCN1CCCC1 is reported as -4.97% (DNMT1 (Homo sapiens, UniProt P26358); enzyme activity; 5.08 nM).
With CN1CCN(c2cc(-c3ccncc3)c(-c3ccc4ccccc4c3)nn2)CC1 the inhibition was -28.7% (HTR1A (Homo sapiens, UniProt P08908); antagonist, FLIPR; 10 µM).

A few entries again:
COc1cc(Nc2ncc(F)c(Nc3ccc4c(n3)NC(=O)C(C)(C)O4)n2)cc(OC)c1OC has an inhibition of 96% (DCLK3 (Homo sapiens, UniProt Q9C098); binding, KINOMEscan; 10 µM, DCAMKL3 kinase).
O=C(Nc1cccnn1)N1CCC(=Cc2cccc(Oc3ccc(C(F)(F)F)cn3)c2)CC1 gave an inhibition of 23% and 13% (somatostatin sst5 receptor; concentration not given).
